Assay results from different studies.
Each line is one published result; not all experiments were run side by side. Values joined by “and” are separate records of one study, mostly repeats; a detail may differ.
Target: Mitogen-activated protein kinase kinase kinase kinase 5 (MAP4K5, Homo sapiens, UniProt Q9Y4K4)

SMILES	assay	conditions	scale	quantity	value
Nc1ncc(-c2cc(-c3cnn(CC(F)(F)F)c3)ncc2F)nc1C(=O)NC1CNCC(F)C1 (stereo not shown)	enzyme activity	1 µM	relative to: DMSO control	remaining activity	84%
CC(C)=CC1OC(C)(C)C2C=C3C(=O)C(Cl)=CC(O)C3C3C(O)C4OC4C(=O)C132 (stereo not shown)	cell-free assay, competition with immobilised ligand	10 µM	–	remaining binding	91%
CN1CC[C@@H](COc2cnc(C#N)cc2-c2ccn3nc(NC(=O)C4CC4)cc3c2)C1	enzyme activity, inhibitor	1 µM	–	inhibition	27%
COc1c(Cl)cccc1Nc1c(-c2ccncc2C#C[C@@]2(C)CCCN2C(=O)/C=C/CN(C)C)[nH]c2c1C(=O)NCC2	binding, competition with immobilised ligand	3 µM	–	remaining binding	70%
Nc1ncc2c(n1)-c1c([nH]c3ccc(C4=CCOCC4)cc13)CCC2	binding, competition with immobilised ligand	1 µM	–	remaining binding	100%
CNC(=O)C1CCN(c2cc(C)c(F)cc2NC(=O)c2ccc(-c3cc(O)ccc3C)c(C)c2)CC1	binding, competition with immobilised ligand	1 µM	–	remaining binding	93%
COc1cc(Nc2nccc(-c3cnn4nc(OC)ccc34)n2)cc(C(F)(F)F)c1	binding, competition with immobilised ligand	1 µM	–	remaining binding	92%
C=CC(=O)N1CCc2ccc(-n3c(=O)ccc4cnc5ccc(-c6cnn(C)c6)cc5c43)cc21	KINOMEscan	1 µM	relative to: DMSO control	remaining binding	100%
NC(=O)[C@@H](O)C[C@H]1CCc2sc3ncnc(O[C@H]4CC[C@H](N5CCOCC5)CC4)c3c21	enzyme activity, inhibitor	10 µM	–	inhibition	24%
Cc1cccc(O[C@H]2CCC[C@@H](C(C)CNCc3ccncc3)C2)c1 (relative stereo)	enzyme activity, inhibitor	10 µM	–	inhibition	-11%
Cc1ccc(-c2c(/C=C(\C#N)C(=O)NC(C)C)n(CCCO)c3ncnc(N)c23)cc1	cell-free assay, competition with immobilised ligand	1 µM	–	remaining binding	100%
C=CC(=O)N1CCCC(n2c(=O)c3ncccc3n(Cc3ccc(Oc4ccccc4)cc3)c2=O)C1 (stereo not shown)	cell-free assay, competition with immobilised ligand	1 µM	–	remaining binding	72%
C=CC(=O)Nc1cccc(-c2cnc3[nH]cc(C(=O)NC(C)(C)C)c3n2)c1	kinase activity	0.1 µM	–	inhibition	52% and 49%

Some of these lines once more:
SMILES	assay	conditions	scale	quantity	value
C=CC(=O)N1CCc2ccc(-n3c(=O)ccc4cnc5ccc(-c6cnn(C)c6)cc5c43)cc21	KINOMEscan	1 µM	relative to: DMSO control	remaining binding	100%
